Measured values collected from several papers.
Each numbered part is a random draw from the data of one study; scales do not carry over between parts.
UniProt P42336, sequence (whole entry, unmodified, looked up): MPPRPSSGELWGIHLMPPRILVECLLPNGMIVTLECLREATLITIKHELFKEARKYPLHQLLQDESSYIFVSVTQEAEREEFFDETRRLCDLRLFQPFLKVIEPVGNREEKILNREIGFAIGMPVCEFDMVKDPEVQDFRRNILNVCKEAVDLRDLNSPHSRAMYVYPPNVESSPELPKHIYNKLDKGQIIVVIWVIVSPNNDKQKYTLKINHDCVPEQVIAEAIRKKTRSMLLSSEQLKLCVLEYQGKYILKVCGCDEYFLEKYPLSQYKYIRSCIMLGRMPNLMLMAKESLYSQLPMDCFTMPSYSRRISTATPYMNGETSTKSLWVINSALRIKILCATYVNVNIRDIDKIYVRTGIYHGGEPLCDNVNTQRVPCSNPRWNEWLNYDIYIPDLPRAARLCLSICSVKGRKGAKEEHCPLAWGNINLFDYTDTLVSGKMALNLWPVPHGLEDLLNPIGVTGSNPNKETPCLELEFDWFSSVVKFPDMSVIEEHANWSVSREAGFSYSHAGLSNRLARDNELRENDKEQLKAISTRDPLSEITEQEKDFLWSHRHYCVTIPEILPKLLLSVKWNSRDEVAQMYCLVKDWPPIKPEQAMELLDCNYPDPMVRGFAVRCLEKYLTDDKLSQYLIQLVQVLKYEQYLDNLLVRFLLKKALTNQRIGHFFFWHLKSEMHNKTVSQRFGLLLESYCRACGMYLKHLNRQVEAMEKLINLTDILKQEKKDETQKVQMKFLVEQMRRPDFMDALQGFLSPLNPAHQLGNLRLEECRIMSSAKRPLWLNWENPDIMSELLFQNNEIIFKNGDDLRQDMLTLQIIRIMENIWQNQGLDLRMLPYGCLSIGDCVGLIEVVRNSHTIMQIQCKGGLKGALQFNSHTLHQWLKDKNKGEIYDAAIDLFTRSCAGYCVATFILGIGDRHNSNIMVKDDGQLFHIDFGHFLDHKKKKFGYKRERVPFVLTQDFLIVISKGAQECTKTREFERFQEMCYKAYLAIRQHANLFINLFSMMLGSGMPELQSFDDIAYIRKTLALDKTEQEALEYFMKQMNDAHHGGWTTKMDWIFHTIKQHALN
UniProt O14936, sequence (whole entry, looked up): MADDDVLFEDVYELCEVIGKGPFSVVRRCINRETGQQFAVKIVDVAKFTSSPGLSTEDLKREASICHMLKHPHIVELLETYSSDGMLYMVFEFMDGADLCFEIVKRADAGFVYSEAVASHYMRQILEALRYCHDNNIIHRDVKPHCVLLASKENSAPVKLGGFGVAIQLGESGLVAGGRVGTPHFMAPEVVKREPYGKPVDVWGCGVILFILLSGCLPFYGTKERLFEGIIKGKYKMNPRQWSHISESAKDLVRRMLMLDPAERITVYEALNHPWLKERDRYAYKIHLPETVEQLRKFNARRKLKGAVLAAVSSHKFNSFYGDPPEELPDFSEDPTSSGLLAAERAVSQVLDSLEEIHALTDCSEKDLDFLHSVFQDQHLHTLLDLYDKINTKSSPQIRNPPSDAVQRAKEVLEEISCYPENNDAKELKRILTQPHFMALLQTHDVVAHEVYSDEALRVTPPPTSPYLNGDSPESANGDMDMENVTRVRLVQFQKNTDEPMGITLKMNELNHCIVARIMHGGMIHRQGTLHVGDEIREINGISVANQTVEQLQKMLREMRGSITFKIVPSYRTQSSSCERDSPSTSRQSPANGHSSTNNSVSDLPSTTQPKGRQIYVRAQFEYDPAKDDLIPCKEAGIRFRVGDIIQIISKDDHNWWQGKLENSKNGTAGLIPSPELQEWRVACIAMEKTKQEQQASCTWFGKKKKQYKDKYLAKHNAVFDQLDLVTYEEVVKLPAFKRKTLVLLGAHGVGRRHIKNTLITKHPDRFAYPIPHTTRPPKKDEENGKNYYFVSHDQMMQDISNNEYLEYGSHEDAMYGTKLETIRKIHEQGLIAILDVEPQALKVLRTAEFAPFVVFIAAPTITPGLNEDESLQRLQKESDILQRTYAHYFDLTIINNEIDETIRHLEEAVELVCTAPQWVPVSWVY
UniProt Q2M2I8, sequence (whole entry, looked up): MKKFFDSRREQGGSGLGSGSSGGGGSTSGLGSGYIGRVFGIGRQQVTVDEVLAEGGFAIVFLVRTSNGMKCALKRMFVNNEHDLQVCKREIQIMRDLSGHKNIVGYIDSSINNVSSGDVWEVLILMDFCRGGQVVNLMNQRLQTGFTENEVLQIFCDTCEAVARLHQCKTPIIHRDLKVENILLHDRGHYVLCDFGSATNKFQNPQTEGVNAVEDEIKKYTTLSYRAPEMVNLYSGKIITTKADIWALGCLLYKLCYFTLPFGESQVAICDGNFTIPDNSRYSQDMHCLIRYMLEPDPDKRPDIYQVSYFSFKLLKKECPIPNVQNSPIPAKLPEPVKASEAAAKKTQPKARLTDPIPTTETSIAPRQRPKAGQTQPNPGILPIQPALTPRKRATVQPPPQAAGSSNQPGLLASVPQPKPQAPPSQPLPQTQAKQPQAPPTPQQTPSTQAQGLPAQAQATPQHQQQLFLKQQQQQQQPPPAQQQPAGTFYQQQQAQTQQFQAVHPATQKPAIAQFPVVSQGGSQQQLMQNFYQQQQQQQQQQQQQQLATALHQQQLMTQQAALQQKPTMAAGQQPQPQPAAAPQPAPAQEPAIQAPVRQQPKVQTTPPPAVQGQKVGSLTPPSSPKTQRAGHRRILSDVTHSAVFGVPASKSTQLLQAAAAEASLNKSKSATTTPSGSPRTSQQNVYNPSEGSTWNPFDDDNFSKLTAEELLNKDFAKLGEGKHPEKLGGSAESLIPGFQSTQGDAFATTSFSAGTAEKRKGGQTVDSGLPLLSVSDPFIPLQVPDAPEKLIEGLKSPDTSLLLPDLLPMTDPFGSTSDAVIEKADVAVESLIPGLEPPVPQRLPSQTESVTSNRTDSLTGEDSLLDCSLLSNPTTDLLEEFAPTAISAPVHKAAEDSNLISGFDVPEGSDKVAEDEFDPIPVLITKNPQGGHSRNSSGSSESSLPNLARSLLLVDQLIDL
UniProt O43781, sequence (whole entry, looked up): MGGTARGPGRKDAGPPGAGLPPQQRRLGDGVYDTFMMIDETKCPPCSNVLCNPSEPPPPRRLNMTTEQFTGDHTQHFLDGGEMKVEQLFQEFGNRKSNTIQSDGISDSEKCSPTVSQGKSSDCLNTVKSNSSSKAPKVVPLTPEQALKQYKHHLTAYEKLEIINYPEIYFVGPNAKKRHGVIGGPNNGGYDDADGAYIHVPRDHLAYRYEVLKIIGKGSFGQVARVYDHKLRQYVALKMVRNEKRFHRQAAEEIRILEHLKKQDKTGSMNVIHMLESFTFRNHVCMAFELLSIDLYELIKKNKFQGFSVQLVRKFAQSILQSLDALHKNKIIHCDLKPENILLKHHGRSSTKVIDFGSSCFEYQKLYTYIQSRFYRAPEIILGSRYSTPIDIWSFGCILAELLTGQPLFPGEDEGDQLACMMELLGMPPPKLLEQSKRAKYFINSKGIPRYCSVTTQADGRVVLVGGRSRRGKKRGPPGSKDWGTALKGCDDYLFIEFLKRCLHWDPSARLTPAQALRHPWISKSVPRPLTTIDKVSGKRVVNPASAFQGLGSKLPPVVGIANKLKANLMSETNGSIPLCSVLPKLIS
UniProt Q9P289, sequence (whole entry, looked up): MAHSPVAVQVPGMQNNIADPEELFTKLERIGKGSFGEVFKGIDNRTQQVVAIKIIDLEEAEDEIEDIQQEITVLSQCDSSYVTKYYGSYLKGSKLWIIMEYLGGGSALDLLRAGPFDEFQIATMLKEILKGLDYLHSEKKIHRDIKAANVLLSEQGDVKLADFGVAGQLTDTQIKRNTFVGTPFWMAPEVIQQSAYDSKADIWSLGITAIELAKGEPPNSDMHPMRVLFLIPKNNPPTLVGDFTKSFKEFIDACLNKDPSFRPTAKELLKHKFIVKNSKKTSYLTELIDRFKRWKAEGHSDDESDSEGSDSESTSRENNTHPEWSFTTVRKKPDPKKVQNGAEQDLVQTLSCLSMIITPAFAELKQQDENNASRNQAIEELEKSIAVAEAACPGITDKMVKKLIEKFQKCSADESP
UniProt O15530, sequence (whole entry, looked up): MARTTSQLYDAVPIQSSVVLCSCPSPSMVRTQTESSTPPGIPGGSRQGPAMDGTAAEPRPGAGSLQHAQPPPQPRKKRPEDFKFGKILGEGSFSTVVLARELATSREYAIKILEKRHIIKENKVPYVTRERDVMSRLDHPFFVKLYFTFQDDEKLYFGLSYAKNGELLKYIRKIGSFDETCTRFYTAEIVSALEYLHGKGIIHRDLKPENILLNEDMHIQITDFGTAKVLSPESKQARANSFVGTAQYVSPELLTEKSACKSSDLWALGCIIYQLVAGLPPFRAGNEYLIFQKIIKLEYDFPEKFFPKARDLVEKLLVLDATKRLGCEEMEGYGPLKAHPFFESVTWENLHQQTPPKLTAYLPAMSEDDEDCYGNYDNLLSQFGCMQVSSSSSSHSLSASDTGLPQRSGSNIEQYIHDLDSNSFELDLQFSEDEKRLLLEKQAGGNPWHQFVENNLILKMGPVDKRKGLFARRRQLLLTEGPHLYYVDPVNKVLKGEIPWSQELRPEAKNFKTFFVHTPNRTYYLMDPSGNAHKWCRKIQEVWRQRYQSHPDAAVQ
UniProt P49841, sequence (whole entry, looked up): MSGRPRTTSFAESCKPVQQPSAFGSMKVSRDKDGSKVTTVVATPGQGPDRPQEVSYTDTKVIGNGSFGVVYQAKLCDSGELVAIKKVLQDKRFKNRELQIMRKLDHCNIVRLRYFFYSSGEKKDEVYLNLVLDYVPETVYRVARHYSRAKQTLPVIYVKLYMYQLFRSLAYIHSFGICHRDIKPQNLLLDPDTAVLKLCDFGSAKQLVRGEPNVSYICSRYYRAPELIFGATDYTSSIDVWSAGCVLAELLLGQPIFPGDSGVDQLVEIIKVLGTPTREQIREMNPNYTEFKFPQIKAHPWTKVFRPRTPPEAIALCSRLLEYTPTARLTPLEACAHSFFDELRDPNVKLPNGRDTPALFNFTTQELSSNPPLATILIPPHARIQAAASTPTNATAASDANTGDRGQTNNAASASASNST

Study 1
Target: Diamine acetyltransferase 1 (Homo sapiens, UniProt P21673)
Mode: inhibitor
Concentration: 10 µM
Baseline: control
Construct (P21673 1-171): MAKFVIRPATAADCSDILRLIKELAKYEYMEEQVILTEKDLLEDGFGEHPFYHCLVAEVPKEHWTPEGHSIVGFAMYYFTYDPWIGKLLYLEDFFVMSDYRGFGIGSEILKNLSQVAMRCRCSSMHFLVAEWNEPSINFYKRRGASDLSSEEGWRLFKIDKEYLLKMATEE
Compound | remaining activity
O=C(O)c1ccc(=O)oc1 | 90.7%
CCCCCCCCCCCCC | 105%
O=c1oc2c(O)c(O)cc3c(=O)oc4c(O)c(O)cc1c4c23 | 96%
N[C@@H](CS)C(=O)O | 101%
C=C1CC[C@]2(C)CC[C@]3(C)[C@H](CC[C@@H]4[C@@]5(C)CC[C@H](O)C(C)(C)[C@@H]5CC[C@]43C)[C@H]2[C@@H]1C | 75.3%
C[C@@H]1O[C@@H](OC[C@H]2O[C@@H](Oc3c(-c4ccc(O)c(O)c4)oc4cc(O)cc(O)c4c3=O)[C@H](O)[C@@H](O)[C@@H]2O)[C@H](O)[C@H](O)[C@H]1O | 100%
O=C(O)[C@H](O)Cc1ccc(O)c(O)c1 | 88.7%
COC(=O)C1=CO[C@@H](O[C@@H]2O[C@H](CO)[C@@H](O)[C@H](O)[C@H]2O)[C@@H]2C(CO)=C[C@@H](O)[C@H]12 | 99.4%
CCOC(=O)/C=C/c1ccc(OC)cc1 | 99%
Cc1cc(O)c2c(c1)C(=O)c1cc(O)cc(O)c1C2=O | 85.4%
CC(C)=CCC/C(C)=C/C=O | 102%
O=c1cc(-c2ccc(O)c(O)c2)oc2cc(O)c([C@@H]3O[C@H](CO)[C@@H](O)[C@H](O)[C@H]3O)c(O)c12 | 84.8%
COc1ccc2c(c1OC)O[C@H]1c3ccc(O[C@@H]4O[C@H](CO)[C@@H](O)[C@H](O)[C@H]4O)cc3OC[C@@H]21 | 104%
Cc1ccc(C(C)C)c(O)c1 | 101%

Study 2
Structure (SMILES): CC(C)S(=O)(=O)c1ccc2nccc(Nc3ccc4sc(C5CCCC5)nc4c3)c2c1
Effect on: kinase activity
Mode: inhibitor
Concentration: 1 µM
target | remaining activity [%]
CLK3 (Homo sapiens, UniProt P49761) | 108
IKBKE (Homo sapiens, UniProt Q14164) | 110
NUAK2 (Homo sapiens, UniProt Q9H093) | 118
LRRK2 (Homo sapiens, UniProt Q5S007) | 116
STK26 (Homo sapiens, UniProt Q9P289) | 83.5

Study 3
Compound: COc1cc2c(N3CCN(C(=O)Nc4ccc(OC(C)C)cc4)CC3)ncnc2cc1OCCCN1CCCCC1
Effect on: enzyme activity
Mode: inhibitor
Concentration: 0.5 µM
Baseline: control
target | remaining activity
DYRK3 (Homo sapiens, UniProt O43781) | 109%
STK17A (Homo sapiens, UniProt Q9UEE5) | 103%
AXL (Homo sapiens, UniProt P30530) | 99%
TSSK2 (Homo sapiens, UniProt Q96PF2) | 96.6%
PDPK1 (Homo sapiens, UniProt O15530) | 96.8%
HIPK2 (Homo sapiens, UniProt Q9H2X6) | 91.8%
EPHA4 (Homo sapiens, UniProt P54764) | 96.4%
BLK (Homo sapiens, UniProt P51451) | 100%
EPHB4 (Homo sapiens, UniProt P54760) | 95%
CAMK2B (Homo sapiens, UniProt Q13554) | 99.9%
Cyclin-dependent kinase 1, with cyclin B (CDK1, Homo sapiens, UniProt P06493) | 97.1%

Study 4
SMILES: O=C(N1CCS(=O)(=O)CC1)N1C[C@H](c2ccc(OC(F)(F)F)cc2)C[C@H](c2nc(C3CC3)no2)C1
Concentration: 1 µM
target | test | remaining binding [%]
HASPIN (Homo sapiens, UniProt Q8TF76) | cell-free assay, competition with immobilised ligand | 95
GSK3B (Homo sapiens, UniProt P49841) | cell-free assay, competition with immobilised ligand | 100
CASK (Homo sapiens, UniProt O14936) | cell-free assay, competition with immobilised ligand | 100
BMPR1B (Homo sapiens, UniProt O00238) | cell-free assay, competition with immobilised ligand | 82
STK32A (Homo sapiens, UniProt Q8WU08) | cell-free assay, competition with immobilised ligand | 89
MAPK1 (Homo sapiens, UniProt P28482) | cell-free assay, competition with immobilised ligand | 95
AAK1 (Homo sapiens, UniProt Q2M2I8) | binding | 99
CAMKK2 (Homo sapiens, UniProt Q96RR4) | cell-free assay, competition with immobilised ligand | 100
Myosin-IIIa (MYO3A, Homo sapiens, UniProt Q8NEV4) | binding, competition with immobilised ligand | 100
PIK3CA (Homo sapiens, UniProt P42336, H1047Y) | cell-free assay, competition with immobilised ligand | 100
ACVR1 (Homo sapiens, UniProt Q04771) | cell-free assay, competition with immobilised ligand | 100
PIK3CA (Homo sapiens, UniProt P42336, H1047L) | cell-free assay, competition with immobilised ligand | 100
MAPK13 (Homo sapiens, UniProt O15264) | cell-free assay, competition with immobilised ligand | 100
IRAK1 (Homo sapiens, UniProt P51617) | cell-free assay, competition with immobilised ligand | 92
TSSK3 (Homo sapiens, UniProt Q96PN8) | cell-free assay, competition with immobilised ligand | 100
OXSR1 (Homo sapiens, UniProt O95747) | cell-free assay, competition with immobilised ligand | 100

A few entries again (study 3):
target | remaining activity
AXL (Homo sapiens, UniProt P30530) | 99%
TSSK2 (Homo sapiens, UniProt Q96PF2) | 96.6%
PDPK1 (Homo sapiens, UniProt O15530) | 96.8%
HIPK2 (Homo sapiens, UniProt Q9H2X6) | 91.8%
EPHA4 (Homo sapiens, UniProt P54764) | 96.4%
